Assay results gathered from unrelated publications.
“And” joins repeats or separate records; there may be more than shown.
Target: Ribosomal protein S6 kinase alpha-4 (RPS6KA4, Homo sapiens, UniProt O75676)

NC(=O)[C@@H](O)C[C@H]1CCc2sc3ncnc(O[C@H]4CC[C@H](N5CCOCC5)CC4)c3c21 — inhibition (enzyme activity, inhibitor; 10 µM): 10%
COCC12C(=O)NC3C4(C(OC)CC1O)C1CC5(O)C(OC)C(O)C(OC(C)=O)(C1C5OC(=O)c1ccccc1)C3(O)C(OC)C24 (stereo not shown) — remaining activity (kinase activity, inhibitor, ProQinase kinase profiling; 25 µM; relative to: control): 99% and 98%
Cc1cccc(O[C@H]2CCC[C@@H](C(C)CNCc3ccncc3)C2)c1 (relative stereo) — inhibition (enzyme activity, inhibitor; 1 µM): 2%
O=C(O)CCC(=O)c1cccc(NS(=O)(=O)c2c[nH]c3ncccc23)c1 — remaining activity (kinase activity, radiometric; 10 µM): 108%
C=CC(=O)Nc1cccc(-c2cnc3[nH]cc(C(=O)NC(C)(C)C)c3n2)c1 — inhibition (kinase activity; 0.1 µM): 5% and 8%
C=CC(=O)N1Cc2nc(-c3cc(-c4cc(Cl)cnc4Cl)c(F)cc3F)n(-c3ccncn3)c2C1 — inhibition (cell-free assay, inhibitor; 1 µM): 6.6%
COc1c(OCCCN2CCOCC2)ccc2c1N=C(NC(=O)c1cnc(N)nc1)N1CCN=C21 — remaining activity (kinase activity, inhibitor; 1 µM; relative to: untreated control): 98%
COc1ccc(NC(=O)Nc2ccc3c(c2)C(=O)N(C(C)CO)CC(C)C(CN(C)Cc2ccc4c(c2)OCO4)O3)cc1 (stereo not shown) — remaining activity (kinase activity, KinaseProfiler; 0.03 µM, species human; relative to: control): 103%
CN1CC[C@@H](COc2cnc(C#N)cc2-c2ccn3nc(NC(=O)C4CC4)cc3c2)C1 — inhibition (enzyme activity, inhibitor; 1 µM): -2%
Cc1nc2c(F)cc(-c3nc(Nc4ccc(CNC(=O)CCCCCCC(=O)NO)cc4)ncc3F)cc2n1C(C)C — inhibition (enzyme activity, inhibitor; 1 µM): 82%

Repeated from above:
C=CC(=O)Nc1cccc(-c2cnc3[nH]cc(C(=O)NC(C)(C)C)c3n2)c1 — inhibition (kinase activity; 0.1 µM): 5% and 8%
COc1c(OCCCN2CCOCC2)ccc2c1N=C(NC(=O)c1cnc(N)nc1)N1CCN=C21 — remaining activity (kinase activity, inhibitor; 1 µM; relative to: untreated control): 98%
